Published values pooled from the literature.
Compare with care: the assays were run in different laboratories. ± marks the error that the study gave.

Compound | test | system | setting | how to read | quantity | value
COc1cc(OC)cc(C2=C3C(C)=C(I)C(/C=C/c4c[nH]c5ccccc45)=[N+]3[B-](F)(F)n3c(/C=C/c4c[nH]c5ccccc45)c(I)c(C)c32)c1 | – | THF | – | relative to: methylene blue | fluorescence quantum yield | 0.12
NCCC(=O)N1Cc2ccccc2-c2c(nnn2-c2nc(N)c3ncn(C4OC(CO)C(O)C4O)c3n2)-c2ccccc21 (mixture of isomers) | frequency-domain fluorometry | methanol | – | – | fluorescence lifetime τ3 | 4.1 ns
Cc1ccc(-c2ccc(-c3cc4sccc4o3)cn2)nc1 | – | aqueous HEPES buffer | pH 7.4, zinc-free ligand | – | fluorescence lifetime | 2.31 ns
O=c1[nH]c(=O)n(C2OC(CO)C(O)C2O)cc1-n1nnc2c1CCC1C(CO)C1CC2 (mixture of isomers) | frequency-domain fluorometry | methanol | – | – | fluorescence lifetime τ1 | 0.3 ns
CC1=CC(C)=[N+]2C1=C(CCCC(=O)NCCCC[C@H](NC(=O)N[C@@H](CCC(=O)O)C(=O)O)C(=O)O)c1c(C)cc(C)n1[B-]2(F)F | – | acetonitrile/water | – | – | fluorescence lifetime | 5.9 ± 0.1 ns
COc1cc(OC)cc(C2=C3C(C)=C(I)C(C)=[N+]3[B-](F)(F)n3c(/C=C/c4c[nH]c5ccccc45)c(I)c(C)c32)c1 | – | DMSO | – | relative to: methylene blue | fluorescence quantum yield | 0.17
COc1ccc(/C=C/c2ccc(-c3ccc(C)cn3)nc2)cc1 | – | MeCN | added: quinine bisulfate reference | – | fluorescence quantum yield | 0.28
COc1cc(OC)cc(C2=C3C(C)=C(I)C(/C=C/c4c[nH]c5ccc([N+](=O)[O-])cc45)=[N+]3[B-](F)(F)n3c(/C=C/c4c[nH]c5ccc([N+](=O)[O-])cc45)c(I)c(C)c32)c1 | – | dichloromethane | – | relative to: methylene blue | fluorescence quantum yield | 0.02
CCN(CC)C(=S)c1ccc(-c2c3ccc(=[N+](C)C)cc-3sc3cc4c(cc23)C(C)(C)CCN4C)s1 | – | methanol | added: excitation 532 nm | – | fluorescence emission maximum | 626 nm
COc1cc(OC)cc(C2=C3C(C)=C(I)C(C)=[N+]3[B-](F)(F)n3c(/C=C/c4c[nH]c5ccc([N+](=O)[O-])cc45)c(I)c(C)c32)c1 | – | DMSO | – | relative to: methylene blue | fluorescence quantum yield | 0.19
Nc1ncnc2c1nc(-n1nnc3c1CCC1C(CO)C1CC3)n2C1OC(CO)C(O)C1O (mixture of isomers) | frequency-domain fluorometry | methanol | – | – | fluorescence lifetime τ1 | 0.1 ns
CC1=CC(C)=[N+]2C1=C(CCCC(=O)NCC1CCC(C(=O)NC(Cc3ccc4ccccc4c3)C(=O)NCCCCC(NC(=O)NC(CCC(=O)O)C(=O)O)C(=O)O)CC1)c1c(C)cc(C)n1[B-]2(F)F (stereo not shown) | – | acetonitrile/water | – | – | fluorescence lifetime | 6.1 ± 0.1 ns
COCCOCCOCCOCCC(=O)NCc1cc(CNC(=O)CCOCCOCCOCCOC)cc(-c2cc3cc4nc(c(-c5ccc(CCC(=O)O)cc5)c5[nH]c(cc6nc(c(OC)c2[nH]3)CC6(C)C)cc5-c2cc(CNC(=O)CCOCCOCCOCCOC)cc(CNC(=O)CCOCCOCCOCCOC)c2)CC4(C)C)c1 | – | water | concentration not given | relative to: DMF | fluorescence quantum yield reduction | 39%
Nc1nc(-n2nnc3c2CCC2C(CO)C2CC3)nc2c1ncn2C1OC(CO)C(O)C1O (mixture of isomers) | frequency-domain fluorometry | methanol | – | – | fluorescence lifetime τ3 | 5.8 ns
CCOC(=O)c1[nH]c(C)c(/C=C/C2=[N+]3C(=C(c4cc(OC)cc(OC)c4)c4c(C)c(I)c(/C=C/c5c(C)[nH]c(C(=O)OCC)c5C)n4[B-]3(F)F)C(C)=C2I)c1C | – | THF | – | relative to: methylene blue | fluorescence quantum yield | 0.07
CCN(CC)C(=O)c1ccc(-c2c3ccc(=[N+](C)C)cc-3sc3cc4c(cc23)C(C)(C)CCN4C)s1 | – | methanol | added: excitation 532 nm | – | fluorescence emission maximum | 626 nm

Excerpt of the above:
Compound | test | system | setting | how to read | quantity | value
CCOC(=O)c1[nH]c(C)c(/C=C/C2=[N+]3C(=C(c4cc(OC)cc(OC)c4)c4c(C)c(I)c(/C=C/c5c(C)[nH]c(C(=O)OCC)c5C)n4[B-]3(F)F)C(C)=C2I)c1C | – | THF | – | relative to: methylene blue | fluorescence quantum yield | 0.07
CCN(CC)C(=O)c1ccc(-c2c3ccc(=[N+](C)C)cc-3sc3cc4c(cc23)C(C)(C)CCN4C)s1 | – | methanol | added: excitation 532 nm | – | fluorescence emission maximum | 626 nm
